Assay results gathered from unrelated publications.
Each line is one published result; not all experiments were run side by side.
Cell line: HEK293
Read-out: cell growth or viability

The CC50 of `NCC1OC(OC2C(N)CC(N)C(OC3OC(CO)C(O)C(N)C3O)C2OCCCCn2cc(CNc3nc(NCc4cn(CCCCOC5C(OC6OC(CN)C(O)CC6N)C(N)CC(N)C5OC5OC(CO)C(O)C(N)C5O)nn4)nc(NCc4cn(CCCCOC5C(OC6OC(CN)C(O)CC6N)C(N)CC(N)C5OC5OC(CO)C(O)C(N)C5O)nn4)n3)nn2)C(N)CC1O` (stereo not shown) is reported as 190000 nM (resazurin; 48 h).
`CNCCCOc1cc(F)c(-c2c(Cl)nc3ncnn3c2NCC(F)(F)F)c(F)c1` gave a CC50 of 23.8 nM (ATP luminescence; 48 h).
The CC50 of `COc1ccc2nc3cc(Cl)ccc3c(NCCN3CCN(C)CC3)c2c1` is reported as 678 nM (MTT; 72 h).
`O=C(Cc1ccc(O)c(O)c1)NCCCCCCCCCC[P+](c1ccccc1)(c1ccccc1)c1ccccc1` gave a CC50 of 31.2 µg/mL (resazurin; 20 h).
The CC50 of `O=C(/C=C/c1ccc(Cl)c(Cl)c1)N1CCC(CCN2CCC(c3c[nH]c4cnccc34)CC2)CC1` is reported as 1940 nM (MTT; 72 h).
With `CNCCCOc1cc(F)c(-c2c(Cl)nc3ncnn3c2N[C@@H](C)C(F)(F)F)c(F)c1` the CC50 was 11.5 nM (ATP luminescence; 48 h).
`COc1ccc2c(c1)C1CC(C)(N2)c2c(C)nc3ccc(OC)cc3c21` (stereo not shown) has a CC50 of greater than 400000 nM (MTT; 24 h).
For `NCC1OC(OC2C(N)CC(N)C(OC3OC(CO)C(O)C(N)C3O)C2OCCCCCCCCCCCCn2cc(CNc3nc(NCc4cn(CCCCCCCCCCCCOC5C(OC6OC(CN)C(O)CC6N)C(N)CC(N)C5OC5OC(CO)C(O)C(N)C5O)nn4)nc(NCc4cn(CCCCCCCCCCCCOC5C(OC6OC(CN)C(O)CC6N)C(N)CC(N)C5OC5OC(CO)C(O)C(N)C5O)nn4)n3)nn2)C(N)CC1O` (stereo not shown), the CC50 was 9500 nM (resazurin; 48 h).
The CC50 of `CC(C)[C@H](Nc1c(-c2c(F)cc(OCCCN(C)C)cc2F)c(Cl)nc2ncnn12)C(F)(F)F` is reported as 19.2 nM (ATP luminescence; 48 h).
With `O=C(/C=C/c1ccc(O)c(O)c1)NCCCCCCCCCC[P+](c1ccccc1)(c1ccccc1)c1ccccc1` the CC50 was 10.7 µg/mL (resazurin; 20 h).

Excerpt of the above:
The CC50 of `COc1ccc2nc3cc(Cl)ccc3c(NCCN3CCN(C)CC3)c2c1` is reported as 678 nM (MTT; 72 h).
